Measurements of several laboratories.
Parts stem from different laboratories: compare values within a part only. Changes are numbered by the printed parent chain.

Study 1
Target: Fragile X messenger ribonucleoprotein 1, C-terminal low-complexity region (Fmr1, Mus musculus, UniProt P35922)
Technique: RNA Bind-n-Seq
Molecule type: RNA
Matrix: in vitro
Tested at: 200 nM
Notes: whole 134-nt RNA, ends assumed
With: 150 mM KCl
Reference: input library
Direction: higher = stronger binding
The log2 enrichment of `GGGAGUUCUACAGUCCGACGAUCAAGUCCUGUGCUACACAUCGUAUGUACCGAAUCGGUUUUUGGUUUUUUUGGAAAGGAAAGUAUUAUGUUACGCCGUUCGGAUCUGCACUUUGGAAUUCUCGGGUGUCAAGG` is reported as -1.07.
`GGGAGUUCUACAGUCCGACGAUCUAACUUUAGAGGAGGAUCUGCUGGAUAUGGCAGUGGACGUGGAUUUGGGGAUGGCUAUAAUGGGUAUGGAGGAGGACCUGGAGGUGGCAAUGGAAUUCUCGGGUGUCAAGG` gave a log2 enrichment of 0.309.
With `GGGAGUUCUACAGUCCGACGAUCGCAGGAAGUAAAAACAAAUGGAAAUGCUUCUGAUAGUGGCAGGGGUGGGGGUUGCUAAGGAAAGGGUGGGAUGGGAGUGGGUAAAGAGUUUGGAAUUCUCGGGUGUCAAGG` the log2 enrichment was 0.525.
The log2 enrichment of `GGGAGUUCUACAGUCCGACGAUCAGUCCUGUGCUACACAUCGUAUGUACCGAAUCGGGGCCCCCGGCCCCCGGCCCCCGGGAAAGUAUUAUGUUACGCCGUUCGGAUCUGCACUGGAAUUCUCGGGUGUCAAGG` is reported as -0.924.
`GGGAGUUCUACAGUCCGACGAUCUGGCCCUGGUGGCAUGCGGGGAGGACGAGGUGGCCUCAUGGAUCGUGGUGGUCCCGGUGGAAUGUUCAGAGGUGGCCGUGGUGGAGACAGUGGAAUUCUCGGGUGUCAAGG` has a log2 enrichment of -0.0611.
`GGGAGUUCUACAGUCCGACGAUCUGGGAGGUGGAUUUUGUUUAUUUUUUUAGCUCAUUUCCAGGGGUGCGAAUUUUUUUUUAAUAUGUGUCAUGAAUAAAGUUGUUUUUGAAAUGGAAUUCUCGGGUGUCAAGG` gave a log2 enrichment of 0.771.
For `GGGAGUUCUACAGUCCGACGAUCUGGCCCUGGUGGCAUGCGGGGAGGAAGAGGUGGCCUCAUGGAUCGUGGUGGUCCCGGUGGAAUGAUCAGAGGUGGCCGUGGUGGAGACAGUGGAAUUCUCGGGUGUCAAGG`, the log2 enrichment was -0.059.

Study 2
Target: RNA binding protein fox-1 homolog 2, RRM domain, GST-SBP tag (RBFOX2, Homo sapiens, UniProt O43251-10, residues 100-194)
Technique: RNA Bind-n-Seq
Molecule type: RNA
Matrix: in vitro
Tested at: 365 nM
Notes: natural RNA segment, single round, ends assumed
Reference: no-protein control
Direction: higher = stronger binding
Target sequence (chain): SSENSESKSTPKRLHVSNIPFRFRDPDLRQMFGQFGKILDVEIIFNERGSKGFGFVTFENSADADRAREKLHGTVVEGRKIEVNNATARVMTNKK
`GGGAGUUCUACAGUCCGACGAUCUGAUGCUGUGAAGCCUGCCCCUGUGUGUAUCUGUUCUCUCACCUCCCUAGCACUGUAAGCAGCGGUGCCUCUUGUAGCAUGUGUGUUUGUUUUUUAAUGUUUCAUGACUCUGGAAUUCUCGGGUGCCAA`: “RBNS enrichment (R)” 4.52.
`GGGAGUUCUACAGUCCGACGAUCUCAGAACUUGUGGCGUAAGACAAGCCAUUUUCUGGUAUUGGUGGAGAACGGAACCAAAGCUGGGCACCGACUUCUCAUGGAUGCCAGGAACCUGGUCCUCGGGGAAAAAGUGGAAUUCUCGGGUGCCAA` — result for “RBNS enrichment (R)”: 0.302.
For `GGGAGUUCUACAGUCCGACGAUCAAAUUUGAGGAAAAUGUUCUCUCCUGGGCCAGCCUCACAGCUUGCGUUGGGUGUGUUGGAAUUGUUCUCUUCGGCCUUGUUCUGCCUUGUGAUCUUUUCAAUUCAGUGAAUGGAAUUCUCGGGUGCCAA`, “RBNS enrichment (R)” read 0.357.
Under “RBNS enrichment (R)”, `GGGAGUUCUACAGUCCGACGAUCAGUGUGUGUGUCUGUGUUUGUUUUAAAAGUCACUUAUUUCUUACAGUGAUUUCAAUUGCACCAUGACUUCUUCACUAAAACCACAAAGUCCUGCUUAAAACUAUGGAAAAUGGAAUUCUCGGGUGCCAA` is recorded as 0.396.
Under “RBNS enrichment (R)”, `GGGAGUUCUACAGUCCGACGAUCAGGUGUGGGCAUUUAAGAGGUACCAGAGGGAAAGGAGCCUCCGAAGGACUCGCAGGGGCAGUCGCAGCUGAUGUUUGAGUGCCCUGGGAUGGGAGUCAGACUGGCUGAGGUGGAAUUCUCGGGUGCCAA` is recorded as 0.779.
`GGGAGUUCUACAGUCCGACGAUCUAAUGACAUUGUUGUUGAUAAAUCUUUUUGCCUAAAAACUAGAAUAAAAUUGCAGUUGUUUCAGUGAUGCCUAAGACUGGUAUAUUUCCACAUUUAUGUACUGAACAUUUUGGAAUUCUCGGGUGCCAA`: “RBNS enrichment (R)” 0.37.

Study 3
Target: CCNB2, cyclin fold, Cln2 fusion (human)
Technique: yeast growth competition, sequencing
Matrix: yeast
Notes: strong parent motif
Reference: not given
Direction: higher = stronger binding
Starting sequence: MICAL3 docking peptide (human); LQLRRQLSFSEDS
Under “normalised enrichment score”, `LQRRRQLSFSEDS [L3R]` is recorded as 0.536.
`LQLRRQLLFSEDS [S8L]`: “normalised enrichment score” 1.07.
`LQQRRQLSFSEDS [L3Q]`: “normalised enrichment score” 0.339.
`LQLRCQLSFSEDS [R5C]` — result for “normalised enrichment score”: 1.19.

Single results of other studies
With `PhoQ, residues 284 288 289 292 302 303 SCKMEA` the fold induction was 18.3 (PhoP, residues 12 14 15 18 19 VHSCL (Escherichia coli, UniProt P23836); Sort-seq, item: YFP reporter; E. coli; PhoQ-PhoP variant library, with: 10 µM Mg2+; reference: high Mg2+ state, higher = stronger signaling).

Excerpt of the above (study 3):
`LQQRRQLSFSEDS [L3Q]`: “normalised enrichment score” 0.339.
